Published values collected from several papers.
Each numbered part is a random draw from the data of one study; scales do not carry over between parts. Positions count from the first letter of the parent shown.

Study 1
Target: CCNF, cyclin fold, Cln2 fusion (human)
Method: yeast growth competition, sequencing
Matrix: yeast
Setting: weak parent motif
Relative to: not given
Reading: higher = stronger binding
Starting sequence: DNAH7 docking peptide (human); HELFQRLDFDNDG; partner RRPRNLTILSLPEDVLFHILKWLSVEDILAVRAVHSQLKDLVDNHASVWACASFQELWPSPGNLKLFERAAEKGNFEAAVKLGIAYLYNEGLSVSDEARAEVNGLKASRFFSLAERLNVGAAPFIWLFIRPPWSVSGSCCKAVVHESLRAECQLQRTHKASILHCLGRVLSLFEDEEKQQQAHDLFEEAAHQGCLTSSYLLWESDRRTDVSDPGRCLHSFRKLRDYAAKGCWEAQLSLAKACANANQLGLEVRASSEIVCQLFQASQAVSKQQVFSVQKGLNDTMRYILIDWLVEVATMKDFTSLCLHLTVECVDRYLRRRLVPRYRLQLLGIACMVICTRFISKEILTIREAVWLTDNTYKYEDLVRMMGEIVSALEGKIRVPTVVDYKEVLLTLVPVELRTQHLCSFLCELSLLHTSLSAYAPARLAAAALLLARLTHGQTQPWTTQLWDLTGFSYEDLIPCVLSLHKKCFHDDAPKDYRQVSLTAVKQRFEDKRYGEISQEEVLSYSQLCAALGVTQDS
| Variant | normalised enrichment score |
| --- | --- |
| HELFQRLDFDNDA [G13A] | -0.0738 |
| HELFQRLDFDADG [N11A] | -0.243 |
| HELFQRADFDNDG [L7A] | -0.377 |
| HELFQALDFDNDG [R6A] | -0.282 |
| HELFARLDFDNDG [Q5A] | 0.212 |
| HELFQRLDFANDG [D10A] | -0.364 |
| HELAQRLDFDNDG [F4A] | 0.113 |

Study 2
Target: Centromere-binding protein 1, full length, N-terminal tag (CBF1, Saccharomyces cerevisiae, UniProt P17106, residues 1-351)
UniProt P17106, sequence (whole entry, looked up): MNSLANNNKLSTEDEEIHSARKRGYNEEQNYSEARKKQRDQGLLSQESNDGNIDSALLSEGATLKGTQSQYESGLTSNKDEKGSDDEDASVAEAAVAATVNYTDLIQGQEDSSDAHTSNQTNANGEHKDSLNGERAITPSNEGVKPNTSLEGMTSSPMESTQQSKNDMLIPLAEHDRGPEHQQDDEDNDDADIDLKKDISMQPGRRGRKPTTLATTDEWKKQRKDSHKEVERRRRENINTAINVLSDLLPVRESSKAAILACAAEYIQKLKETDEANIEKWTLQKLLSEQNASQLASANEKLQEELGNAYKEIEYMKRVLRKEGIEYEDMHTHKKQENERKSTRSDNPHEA
Method: protein-binding microarray
Molecule type: double-stranded DNA, one strand shown
Matrix: in vitro
Tested at: 0.8 µM
Setting: whole 60-bp probe, no competitor
Reading: higher = stronger binding
| Oligonucleotide | fluorescence intensity |
| --- | --- |
| CCTAACTACTATACGCGCGTGCTATAGCTTCGTACAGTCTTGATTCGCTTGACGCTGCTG | 648 a.u. |
| GAAGCCAATAATCCTCACATGGTGGAGCTACAATAGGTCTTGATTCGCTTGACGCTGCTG | 686 a.u. |
| GAATGCTTATTACGTGACATGACCCTATTGTATTAGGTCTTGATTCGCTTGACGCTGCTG | 701 a.u. |
| CTATGAATAGTACATGATGCAATAGAAGGTGGATTCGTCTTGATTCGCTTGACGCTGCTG | 536 a.u. |
| CTATCCTTCGAGCACAACGTGGCATTATATATATTCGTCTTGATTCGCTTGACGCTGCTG | 670 a.u. |
| TGTACGAAGCTATACGTGATGACTATAGTAGTTAGGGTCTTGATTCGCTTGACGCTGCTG | 534 a.u. |
| CTATCATGGCGCCATCACCCGCAGGGAATATAATTCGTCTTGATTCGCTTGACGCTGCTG | 489 a.u. |
| TGTACGAAGCTATATCAGGTGACTATAGTAGTTAGGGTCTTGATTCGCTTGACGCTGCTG | 4280 a.u. |
| CTATTGCACTAACTTTACGTGTCTTTTTGTTTTTTCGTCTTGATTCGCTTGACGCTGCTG | 494 a.u. |
| CCTAACTACTATACAAGTGTGACATAGCTTCGTACAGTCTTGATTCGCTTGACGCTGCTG | 573 a.u. |
| GAAATTGACGGTATACCCGTGTTTTTCTCATTATAGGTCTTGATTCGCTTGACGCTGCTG | 524 a.u. |
| GAACAATCAACCGTACACGCGGTACTTATCCAGTAGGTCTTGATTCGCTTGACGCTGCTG | 559 a.u. |
| GAAAGGAGGTAACATCAGGTCCGTGGATATGTTTAGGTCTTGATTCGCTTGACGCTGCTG | 507 a.u. |
| CTAGCTGAATTGCTAATCGTGATACTGCATCATTTCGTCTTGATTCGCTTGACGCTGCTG | 536 a.u. |
| GAAGTGGGTGTGGGTGTGGTGTGGGTGTGGTGGTAGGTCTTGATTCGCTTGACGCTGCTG | 560 a.u. |
| GAAATTTCACATCATCAGGTGATGTCAACTCAGTAGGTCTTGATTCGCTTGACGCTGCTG | 2290 a.u. |
| GAATGTTCCCGGCAGCACGAGTAAGCAAAATTCTAGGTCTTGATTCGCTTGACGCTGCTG | 616 a.u. |
| GAAACATAAGTAATACTCATGACAGAATCAAAATAGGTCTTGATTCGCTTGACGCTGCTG | 566 a.u. |
| CTAACTATATTATTACACGCGGTGTAAGAAGATTTCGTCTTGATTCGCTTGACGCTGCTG | 526 a.u. |
| GAAATGCCTTCGGTTCACATGGTAAACTCGAGCTAGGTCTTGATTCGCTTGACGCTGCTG | 661 a.u. |
| CTATCGCATAAGAGGCACGCCTCTTATCAATTTTTCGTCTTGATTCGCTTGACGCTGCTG | 520 a.u. |
| TGTACGAAGCTATATCAGTTGCGTATAGTAGTTAGGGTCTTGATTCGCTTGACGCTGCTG | 523 a.u. |

Study 3
Target: Histone acetyltransferase KAT6A, both winged helices, GST fusion (KAT6A, Homo sapiens, UniProt Q92794, residues 1-181)
Method: protein binding microarray
Molecule type: double-stranded DNA, one strand shown
Matrix: in vitro
Tested at: not given
Setting: 8-mer, flanks averaged, mean of 2 arrays, mostly near background
Relative to: not given
Reading: higher = stronger binding
Residues (chain): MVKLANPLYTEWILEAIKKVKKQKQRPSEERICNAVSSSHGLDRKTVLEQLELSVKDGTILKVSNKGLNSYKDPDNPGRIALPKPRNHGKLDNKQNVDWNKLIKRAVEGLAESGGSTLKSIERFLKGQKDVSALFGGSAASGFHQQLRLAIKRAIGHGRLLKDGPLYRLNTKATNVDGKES
| Oligonucleotide | E-score |
| --- | --- |
| GAAATGAC | 0.0018 |
| ACACGCCT | -0.0237 |
| ATTAGGGG | -0.217 |
| CTGAAAGA | 0.0362 |
| ATCGCTAG | 0.00835 |
| AATGAGCG | 0.137 |
| AGATGCCC | -0.105 |
| ACTAGGGA | -0.0592 |
| GCAGAAGC | 0.034 |
| AGCGTATC | 0.103 |
| GCGTATCA | 0.0867 |
| GCTTCCGA | 0.167 |
| CGACACAA | -0.107 |
| AACAACAC | -0.134 |
| AACCGCGT | 0.311 |
| GCTCCCTA | -0.0893 |
| CACCAGTC | -0.0479 |
| AGCATGCC | 0.0677 |
| ACCCTAGG | -0.209 |
| CGGAACCG | 0.248 |
| CGTATCTC | 0.118 |
| ATGCAGAG | -0.134 |
| ATCAGGAG | -0.193 |
| GGTTAATA | -0.0805 |
| CAGACCAC | -0.158 |

Mixed results
| Substance | target | assay | system | conditions | how to read | measurement | result |
| --- | --- | --- | --- | --- | --- | --- | --- |
| PhoQ, residues 284 288 289 292 302 303 TASMAF | PhoP, residues 12 14 15 18 19 STHWV (Escherichia coli, UniProt P23836) | Sort-seq, measured: YFP reporter | E. coli | PhoQ-PhoP variant library, added: 10 µM Mg2+ | relative to: high Mg2+ state, higher = stronger signaling | fold induction | 19.2 |

Excerpt of the above (study 3):
| Oligonucleotide | E-score |
| --- | --- |
| ATGCAGAG | -0.134 |
| CAGACCAC | -0.158 |
| AGCGTATC | 0.103 |
| AATGAGCG | 0.137 |
| GCTTCCGA | 0.167 |
| AGCATGCC | 0.0677 |
| GAAATGAC | 0.0018 |
